Experimental data of several laboratories.
Every numbered part comes from another study and shows a few of its results, in no order.

Study 1 — method: universal PBM; form: double-stranded DNA, one strand shown; medium: in vitro; tested at: 600 nM; direction: higher = stronger binding
Target: Sal-like protein 4, full length isoform A (SALL4, Homo sapiens, UniProt Q9UJQ4, residues 1-1053)
Chain of UniProt Q9UJQ4 (whole entry, looked up): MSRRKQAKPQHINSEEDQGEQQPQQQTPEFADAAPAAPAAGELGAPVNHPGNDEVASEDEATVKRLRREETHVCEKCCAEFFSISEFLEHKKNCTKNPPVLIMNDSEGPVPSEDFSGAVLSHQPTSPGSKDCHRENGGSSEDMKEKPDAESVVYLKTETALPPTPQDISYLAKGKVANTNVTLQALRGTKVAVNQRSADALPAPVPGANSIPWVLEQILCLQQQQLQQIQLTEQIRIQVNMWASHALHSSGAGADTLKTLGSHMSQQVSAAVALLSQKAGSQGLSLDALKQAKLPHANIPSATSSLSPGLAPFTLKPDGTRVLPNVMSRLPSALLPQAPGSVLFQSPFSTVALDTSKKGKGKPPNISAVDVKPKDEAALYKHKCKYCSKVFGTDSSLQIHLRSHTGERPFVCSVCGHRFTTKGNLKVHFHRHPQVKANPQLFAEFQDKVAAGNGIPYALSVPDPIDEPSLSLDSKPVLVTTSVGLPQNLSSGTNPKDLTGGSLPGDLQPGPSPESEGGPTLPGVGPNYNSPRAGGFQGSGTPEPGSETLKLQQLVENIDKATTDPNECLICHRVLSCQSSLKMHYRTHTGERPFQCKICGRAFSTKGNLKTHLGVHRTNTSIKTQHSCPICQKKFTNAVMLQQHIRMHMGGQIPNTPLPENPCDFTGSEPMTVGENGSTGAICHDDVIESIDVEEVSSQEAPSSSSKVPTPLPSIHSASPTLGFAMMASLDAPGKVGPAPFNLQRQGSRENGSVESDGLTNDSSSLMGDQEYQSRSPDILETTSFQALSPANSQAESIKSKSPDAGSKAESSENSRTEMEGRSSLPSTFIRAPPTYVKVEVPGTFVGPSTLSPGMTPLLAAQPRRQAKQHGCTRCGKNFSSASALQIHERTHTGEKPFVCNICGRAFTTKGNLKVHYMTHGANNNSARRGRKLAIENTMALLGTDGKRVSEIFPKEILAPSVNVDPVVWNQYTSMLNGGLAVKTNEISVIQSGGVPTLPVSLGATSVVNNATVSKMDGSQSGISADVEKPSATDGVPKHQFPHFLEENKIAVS
Setting: 8-mer, flanks averaged, mean of replicates
Sequence | E-score
CGTACCTC | -0.238
ACGAACAT | 0.173
AGTCTGCA | -0.174
AAGCAACA | 0.0419
CCAGACGG | -0.333
CTAAAGAG | -0.0872
CTAAACCC | -0.0258
ACGGGAGA | -0.0301
TGATTGCA | 0.131
AGAAACAA | 0.29
ATCCAGGG | -0.176
CAATTTAC | 0.168
ACCGTAAA | 0.154
AAACATAT | 0.374
CATCCGGC | -0.289
AAGCTTCC | 0.0361
CTCGGCCA | -0.172
GGTTCCAC | -0.185
CAATTAAC | 0.255
CGGAGGGA | -0.27

Study 2 — method: protein binding microarray; form: double-stranded DNA, one strand shown; medium: in vitro; tested at: not given; relative to: not given; direction: higher = stronger binding
Target: Histone acetyltransferase KAT6A, winged helix 1, GST fusion (KAT6A, Homo sapiens, UniProt Q92794, residues 1-85)
Setting: 8-mer, flanks averaged, mean of 2 arrays, mostly near background
Residues (chain): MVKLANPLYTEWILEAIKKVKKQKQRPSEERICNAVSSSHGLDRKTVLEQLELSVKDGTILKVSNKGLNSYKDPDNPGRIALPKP
Sequence | E-score
CCGGTGAC | 0.133
AATGCTGT | -0.154
GTCCATTA | -0.0917
GGCACAAA | 0.075
GCCCCATA | -0.113
AATTGCCG | 0.332
CCCATCAG | -0.137
GCACACGC | 0.188
CGAAGGAA | -0.0892
GATTCTGC | -0.113
CGCGCAAA | 0.316
GCGAAAGC | 0.204
ATAGTTTG | -0.127
TCACCACA | -0.173
TGACTCAA | -0.0838
ATAGGTAG | -0.318
TAGGCGCA | 0.0777
AACCAGTA | -0.0609
ACTGTACG | 0.0848
CAGGGCGC | 0.299
GCTGATAA | 0.0192
GAGCGAGA | 0.0203
GTTGAAAC | 0.0348
CATGTGGA | -0.131
AGACGTAC | -0.0522

Study 3 — method: RNA Bind-n-Seq; form: RNA; medium: in vitro; tested at: 365 nM; relative to: no-protein control; direction: higher = stronger binding
Target: RNA binding protein fox-1 homolog 2, RRM domain, GST-SBP tag (RBFOX2, Homo sapiens, UniProt O43251-10, residues 100-194)
Setting: natural RNA segment, single round, ends assumed
Shared flanks, not repeated: GGGAGUUCUACAGUCCGACGAUC … UGGAAUUCUCGGGUGCCAA
Residues (chain): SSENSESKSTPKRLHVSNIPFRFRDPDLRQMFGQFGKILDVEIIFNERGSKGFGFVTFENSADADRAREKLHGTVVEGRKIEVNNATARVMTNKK
Sequence | RBNS enrichment (R)
AGGCUCAUUCUGAGUUGAUGAAAAGUCUUGUUUGGACUUCUGCAGGGUUUGACUCCCUGGACACUCUGAGUGGGGUGGUCAUCCAGGCAGUACUAUUAAUGACCUCCCCA | 0.293
UUCAAGGAAAGUAUAGCGUCUAUGGAGUUCAGAGGGCACGUGUUUGGGGGAAAAUAUAUAUGACAUGAAGAAGAAGAUGAAGAAAAAUGAGAAAAAAACACACAAAAGGC | 2
UAUCACCAUUAAAUUAAGACCUUAAUGGUAAACUGAGGUUACUGAUGCAUCAUCACAUUUAAGUAAAAAUAAUUUCAUGUUUUCCCCAAAGAAAAAUUAAGCCUCCCAAU | 0.495
AGUUCAGAGUGGGAUUUUUUUCUUUGAACCUUAAAGGUUUUAUUUUAGAACGAGGCACAGAUCGCACAUUUUCUACUUGAGGAUCUUUUUUAGUGGUGAAUACCAAGAUU | 2.59
GCUUUUCACAGGCGUGGGAUCCAGGAUGGUGUCCUCUGUGAGGACUUGAACUCUGGGGCUUUAAUUCCACUGUUUAAUUUUCAGGUACCACAGCAGCAAAGCACAGAGUG | 0.402
AAGGAGGAGCCGGCACCUAGCAACUGCGGCCUCGCACGGAACUGCCAUCCUGUGAGGGCAGCGGUGGCGCCCGGCAAAGUUGGAGCCCUUGCGGUACCAGAAAGCAGCGA | 0.424
UUGUUGCUUUACCCAAGACAAAUGUAAUUUUAUCAUUGCUUAUGUAGUAUUUUUCUUUUGGAAAUGUGCCUUAUGUUAAACACUAUGUACUUUUACUUUUUGCAUUGUCC | 0.401
GUAAUAAAAUAGAGCAUAACGAAACUGUGAAACUUUCUGAAGCCUUGUCAGUGGUUAAAAGUAUUUAACACUCUACUGUUAAUGACAGAUGUUCUGUUUUUAUAACCUAC | 0.512
CUGAAAUGUUGCUGAAAAGCAUGGUGCUGGUAACAGUUCAACAAUCCGUGGCUGCUCAUUCUUGCCUACUUUACUCUCCCACUGAAGCAGGUUAGCGUUGAAGGUGGUAU | 6.55
ACCACACUUGGUGGAGCCCGAUUCCCUUGUCUCAGACCAUGGUUAGUUACAUAAUUUUAUGGACUAUAGAGAUGGCGUCCCACUGAUGUGAGAAACAUCACAACAGCGAG | 0.183
UAGGCUUCUAUUACCUAUUAGGUGGAAAUUUUAUAUGUAAAUGUGUUAGCACUGAUAGUCCUUUUUCCAAUGUUUUAUUGGGGAAUUAAAUAGUGUGAUGUUUGGAUUGA | 0.455
UUAUUCAGUCUGGUUCUUGGCUCCCCACUACUGUUUCUCUCAGCCUCUCAGAGCCUGAAACUUACCUCUUAGCUUUGGCUACAGGCAUGGCCUAGUACCUGAUGGAGCCU | 0.263

Study 4 — method: RNA Bind-n-Seq; form: RNA; medium: in vitro; tested at: 1 µM; setting: whole 134-nt RNA, ends assumed; added: 150 mM KCl; relative to: input library; direction: higher = stronger binding
Target: Ras GTPase-activating protein-binding protein 1, RRM domain (G3BP1, Homo sapiens, UniProt Q13283)
Chain of UniProt Q13283 (whole entry, looked up): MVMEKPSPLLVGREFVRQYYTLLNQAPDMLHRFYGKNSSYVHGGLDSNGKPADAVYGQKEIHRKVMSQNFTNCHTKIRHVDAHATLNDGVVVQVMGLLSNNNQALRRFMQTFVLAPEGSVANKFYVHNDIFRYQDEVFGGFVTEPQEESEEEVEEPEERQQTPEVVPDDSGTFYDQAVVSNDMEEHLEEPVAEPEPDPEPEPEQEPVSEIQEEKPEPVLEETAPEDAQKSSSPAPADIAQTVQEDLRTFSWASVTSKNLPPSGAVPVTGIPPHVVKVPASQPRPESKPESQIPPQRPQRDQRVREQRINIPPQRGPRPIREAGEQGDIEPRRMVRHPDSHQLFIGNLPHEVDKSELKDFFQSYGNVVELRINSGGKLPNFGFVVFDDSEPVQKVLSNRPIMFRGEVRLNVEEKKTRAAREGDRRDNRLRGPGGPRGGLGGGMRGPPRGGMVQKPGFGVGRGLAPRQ
Shared flanks, not repeated: GGGAGUUCUACAGUCCGACGAUC … UGGAAUUCUCGGGUGUCAAGG
Sequence | log2 enrichment
UAACUUUAGAGAAGGAUCUGAUGGAUAUGGCAGUGGACGUGGAUUUGGGGAUGGCUAUAAUGGGUAUGGAGGAGGACCUGGAGGUGGCAA | -0.874
ACCAUGCGGGUGGGCAUCUUUGGGAAGUGGGGCAAGGGGGGGAUAGGGAGGGGGGUAACACUUUGGGAACAGGUGGUCCCAGGUCGUUUC | -0.658
UGGGAGGUGGAUUUUGUUUAUUUUUUUAGCUCAUUUCCAGAGGUGGGAAUUUUUUUUUAAUAUGUGUCAUGAAUAAAGUUGUUUUUGAAA | 1.43
UAACUUUAGAGGAGGAUCUGAUGGCUAUGGCAGUGGACGUGGAUUUGGGGAUGGCUAUAAUGGGUAUGGAGGAGGACCUGGAGGUGGCAA | -0.882
UCCUCAAGUCCUGUGCUACACAUCGUAUGUACCGAAUCGGGCGGCGGGGCGGAAAGUAUUAUGUUACGCCGUUCGGAUCUGCACUUCCAG | -0.303
UAACUUUAGAGGAGAAUCUGAUGGAUAUGGCAGUGGACGUGGAUUUGGGGAUGGCUAUAAUGGGUAUGGAGGAGGACCUGGAGGUGGCAA | -0.866
CAAGUCCUGUGCUACACAUCGUAUGUACCGAAUCGGGUGGGUUUUUGGGAAAGGGAAAGUAUUAUGUUACGCCGUUCGGAUCUGCACUUC | 0.676
UGUGCUACACAUCGUAUGUACCGAAUCGGGGAAAAAAAGGGGAAAAAAAGGGAAAAAAAGGGGAAAGUAUUAUGUUACGCCGUUCGGAUC | 0.116
UCCUCAAGUCCUGUGCUACACAUCGUAUGUACCGAAUCGGGUGGUGGUGGGGAAAGUAUUAUGUUACGCCGUUCGGAUCUGCACUUCCAG | -0.106
CUCAAGUCCUGUGCUACACAUCGUAUGUACCGAAUCGGGGAAGGAAGGAAGGGGAAAGUAUUAUGUUACGCCGUUCGGAUCUGCACUUCC | -0.282
CACAGACAACACGCACCCACACAGACACAGAGGGAAGGGGUUGGGAUGGGGACAGGGUACACAGCAGGGCGGGGUAGGACCCCAGCCCCU | 0.126
CAAGUCCUGUGCUACACAUCGUAUGUACCGAAUCGGGGCCCGGCCCGGGGCCCGGAAAGUAUUAUGUUACGCCGUUCGGAUCUGCACUUC | -0.845
UCCUGUGCUACACAUCGUAUGUACCGAAUCGGGGUUUUUGGGGUUUUUGGUUUUUGGGGAAAGUAUUAUGUUACGCCGUUCGGAUCUGCA | -0.169
GCAGGAAGUAAAAACAAAUGGAAAUGCUUCGGAUAGUGGCAGGGGUGGGGGUUGCUAAGGAAAGGGUGGGAUGGGAGUGGGUGAAGAGUU | 0.726

Study 5 — method: aptamer microarray, sandwich; form: DNA with 2'F-ANA; medium: in vitro; tested at: 200 nM; added: Cy3 exosite-II aptamer, 400 nM; direction: higher = stronger binding; sequence: GGTTGGTGTGGTTGG
Target: Prothrombin, mature alpha-thrombin (F2, Homo sapiens, UniProt P00734)
Setting: whole 15-mer aptamer, many near background
Modification | mean fluorescence intensity [a.u.]
2'F-ANA at 6 9 10 11 14 15 | 98.7
2'F-ANA at 2 5 9 10 11 12 14 | 48.3
2'F-ANA at 1 3 4 6 8 11 12 15 | 319
2'F-ANA at 1 4 10 11 12 13 15 | 56.8
2'F-ANA at 4 7 10 13 14 | 60.2
2'F-ANA at 1 2 3 4 5 7 8 9 10 12 14 | 48.2
2'F-ANA at 9 11 13 | 458
2'F-ANA at 1 3 8 11 14 | 89.2
2'F-ANA at 2 3 5 9 10 11 | 54.6
2'F-ANA at 1 7 12 13 | 317
2'F-ANA at 1 3 5 8 12 13 14 | 49
2'F-ANA at 3 4 5 8 15 | 114
2'F-ANA at 5 6 9 10 11 13 14 | 44.2
2'F-ANA at 1 2 4 5 6 7 12 13 | 77
2'F-ANA at 2 3 7 12 13 | 1130
2'F-ANA at 1 3 8 10 13 14 15 | 81.3
2'F-ANA at 1 2 3 4 11 12 13 | 229
2'F-ANA at 5 8 10 12 13 | 54.7
2'F-ANA at 5 6 10 11 12 15 | 48.2
2'F-ANA at 1 3 4 10 13 14 15 | 58.6
2'F-ANA at 2 7 9 11 13 | 336
2'F-ANA at 1 2 7 8 9 13 | 170
2'F-ANA at 1 3 8 9 11 12 13 15 | 497
2'F-ANA at 3 4 9 10 12 13 14 15 | 212
2'F-ANA at 3 5 6 7 8 14 | 91.3

Excerpt of the above (study 4):
Sequence | log2 enrichment
UCCUCAAGUCCUGUGCUACACAUCGUAUGUACCGAAUCGGGUGGUGGUGGGGAAAGUAUUAUGUUACGCCGUUCGGAUCUGCACUUCCAG | -0.106
UCCUCAAGUCCUGUGCUACACAUCGUAUGUACCGAAUCGGGCGGCGGGGCGGAAAGUAUUAUGUUACGCCGUUCGGAUCUGCACUUCCAG | -0.303
CUCAAGUCCUGUGCUACACAUCGUAUGUACCGAAUCGGGGAAGGAAGGAAGGGGAAAGUAUUAUGUUACGCCGUUCGGAUCUGCACUUCC | -0.282
ACCAUGCGGGUGGGCAUCUUUGGGAAGUGGGGCAAGGGGGGGAUAGGGAGGGGGGUAACACUUUGGGAACAGGUGGUCCCAGGUCGUUUC | -0.658
UGGGAGGUGGAUUUUGUUUAUUUUUUUAGCUCAUUUCCAGAGGUGGGAAUUUUUUUUUAAUAUGUGUCAUGAAUAAAGUUGUUUUUGAAA | 1.43
UAACUUUAGAGGAGGAUCUGAUGGCUAUGGCAGUGGACGUGGAUUUGGGGAUGGCUAUAAUGGGUAUGGAGGAGGACCUGGAGGUGGCAA | -0.882
UAACUUUAGAGAAGGAUCUGAUGGAUAUGGCAGUGGACGUGGAUUUGGGGAUGGCUAUAAUGGGUAUGGAGGAGGACCUGGAGGUGGCAA | -0.874
UCCUGUGCUACACAUCGUAUGUACCGAAUCGGGGUUUUUGGGGUUUUUGGUUUUUGGGGAAAGUAUUAUGUUACGCCGUUCGGAUCUGCA | -0.169
CAAGUCCUGUGCUACACAUCGUAUGUACCGAAUCGGGGCCCGGCCCGGGGCCCGGAAAGUAUUAUGUUACGCCGUUCGGAUCUGCACUUC | -0.845
CACAGACAACACGCACCCACACAGACACAGAGGGAAGGGGUUGGGAUGGGGACAGGGUACACAGCAGGGCGGGGUAGGACCCCAGCCCCU | 0.126
UAACUUUAGAGGAGAAUCUGAUGGAUAUGGCAGUGGACGUGGAUUUGGGGAUGGCUAUAAUGGGUAUGGAGGAGGACCUGGAGGUGGCAA | -0.866
CAAGUCCUGUGCUACACAUCGUAUGUACCGAAUCGGGUGGGUUUUUGGGAAAGGGAAAGUAUUAUGUUACGCCGUUCGGAUCUGCACUUC | 0.676
